# Published values of several laboratories.
# Several values in a cell are separate wells, animals, samples, runs or records.
# Cell line: MCF7
Compound,test,conditions,scale,quantity,result
CC1CCC2C(C)C(CCCOC(=O)C(Cc3ccc(N(CCCl)CCCl)cc3)NC(=O)OC(C)(C)C)OC3OC4(C)CCC1C32OO4 (stereo not shown),"cell growth or viability, CCK-8",,,IC50,> 50 µM
CC[C@H](C)[C@H](NC(=O)CNC(=O)[C@H](Cc1ccc(O)cc1)NC(=O)[C@H](CO)NC(=O)[C@H](Cc1ccc(O)cc1)NC(=O)[C@@H](NC(=O)[C@H](CC(=O)O)NC(=O)[C@H](CO)NC(=O)[C@H](CCC(N)=O)NC(=O)[C@H](Cc1ccccc1)NC(=O)[C@H](CO)NC(=O)[C@H](Cc1ccccc1)NC(=O)[C@@H]1CCCN1C(=O)[C@H](CC(N)=O)NC(=O)[C@H](CC(N)=O)NC(=O)[C@H](CC(=O)O)NC(=O)[C@H](CCC(N)=O)NC(=O)[C@@H]1CCCN1C(=O)[C@H](CCCNC(=N)N)NC(=O)[C@H](CCCNC(=N)N)NC(=O)[C@H](CCCNC(=N)N)NC(=O)[C@H](CCC(N)=O)NC(=O)[C@H](CCCNC(=N)N)NC(=O)[C@H](CCCNC(=N)N)NC(=O)[C@H](CCCCN)NC(=O)[C@H](CCCCN)NC(=O)[C@H](CCCNC(=N)N)NC(=O)CN)C(C)C)C(=O)N[C@H](C(=O)N[C@@H](CC(C)C)C(N)=O)C(C)C,"immunoblot densitometry, refers to: phospho-MEK1/2 Ser217/221","5 µM, 48 h, unit not given",relative to: 0 µM,phospho-MEK1/2 level,0.972 and 0.914
Cc1ccc(C(C)C)cc1.F[P-](F)(F)(F)(F)F.[Cl][Os+]1[N]2C=CC=c3ccc4c(c32)[N]1C=CC=4,"cell growth or viability, MTT",,,IC50,73.1 µM
COc1ccc(CC(=O)N2CCN(CC(OCc3ccc4ccccc4c3)c3ccc(Cl)cc3Cl)CC2)cc1 (stereo not shown),"cell growth or viability, MTT",24 h,,IC50,23.8 µM
Cc1ccc2c(Br)cc(Br)c([O-])c2n1.Cc1ccc2c(Br)cc(Br)c([O-])c2n1.[Co+2].c1cnc2c(c1)c1nccnc1c1cccnc12,"cell growth or viability, MTT",48 h,,IC50,6.99 µM
O=C(N[C@H](Cc1ccccc1)C(=O)N[C@H](Cc1ccccc1)C(=O)N[C@@H](Cc1ccc(OP(=O)(O)O)cc1)C(=O)O)OCC1c2ccccc2-c2ccccc21,"mitochondrial membrane potential, flow cytometry","500 µM, 48 h",,low-TMRM cells,60%
CC(C)(C)C(=O)OCOP(=O)(OCOC(=O)C(C)(C)C)C1CCCN(O)C1=O (stereo not shown),,,,log GI50,-6.47 log M
CC[C@H](C)[C@@H]1NC(=O)[C@@H]2CCCN2C(=O)[C@H](C)NC(=O)[C@H](CC(C)C)NC(=O)[C@@H]2CCCN2C(=O)[C@H](C)NC(=O)[C@@H]2CSSC[C@H](NC(=O)[C@H](C)NC(=O)[C@H](C)NC(=O)[C@H](Cc3ccc(O)cc3)NC(=O)[C@@H]3CCCN3C(=O)CNC(=O)[C@H](Cc3c[nH]c4ccccc34)NC1=O)C(=O)N[C@@H](CC(C)C)C(=O)N[C@@H](CO)C(=O)N[C@@H](C)C(=O)N[C@H]1CSSC[C@H](NC(=O)[C@H](C(C)C)NC(=O)[C@@H]3CCCN3C(=O)CNC(=O)CNC(=O)CNC(=O)[C@H](C)NC(=O)[C@H](C)NC(=O)[C@H](CC(C)C)NC1=O)C(=O)N[C@@H](CC(C)C)C(=O)N[C@@H](C)C(=O)N[C@@H](C(C)C)C(=O)N2,,,,IC50,> 128 µg/mL
O=C(Cc1ccc(Cl)cc1)N1CCN(CC(OCc2ccc3ccccc3c2)c2ccc(Cl)cc2Cl)CC1 (stereo not shown),"cell growth or viability, MTT",24 h,,IC50,17.9 µM
Cc1cc(Oc2nc(N3CC[C@@H](c4ccncc4)C3)ncc2F)[nH]n1,cell growth or viability,,,IC50,32.4 µM

# Excerpt of the above:
Compound,test,conditions,scale,quantity,result
CC[C@H](C)[C@@H]1NC(=O)[C@@H]2CCCN2C(=O)[C@H](C)NC(=O)[C@H](CC(C)C)NC(=O)[C@@H]2CCCN2C(=O)[C@H](C)NC(=O)[C@@H]2CSSC[C@H](NC(=O)[C@H](C)NC(=O)[C@H](C)NC(=O)[C@H](Cc3ccc(O)cc3)NC(=O)[C@@H]3CCCN3C(=O)CNC(=O)[C@H](Cc3c[nH]c4ccccc34)NC1=O)C(=O)N[C@@H](CC(C)C)C(=O)N[C@@H](CO)C(=O)N[C@@H](C)C(=O)N[C@H]1CSSC[C@H](NC(=O)[C@H](C(C)C)NC(=O)[C@@H]3CCCN3C(=O)CNC(=O)CNC(=O)CNC(=O)[C@H](C)NC(=O)[C@H](C)NC(=O)[C@H](CC(C)C)NC1=O)C(=O)N[C@@H](CC(C)C)C(=O)N[C@@H](C)C(=O)N[C@@H](C(C)C)C(=O)N2,,,,IC50,> 128 µg/mL
